Measured values gathered from unrelated publications.
Each line is one published result; not all experiments were run side by side. “And” joins repeats or separate records; there may be more than shown. ± gives the spread as reported.
EPHA2: Ephrin type-A receptor 2 (EPHA2, Homo sapiens, UniProt P29317)
Sequence of UniProt P29317 (whole entry, looked up): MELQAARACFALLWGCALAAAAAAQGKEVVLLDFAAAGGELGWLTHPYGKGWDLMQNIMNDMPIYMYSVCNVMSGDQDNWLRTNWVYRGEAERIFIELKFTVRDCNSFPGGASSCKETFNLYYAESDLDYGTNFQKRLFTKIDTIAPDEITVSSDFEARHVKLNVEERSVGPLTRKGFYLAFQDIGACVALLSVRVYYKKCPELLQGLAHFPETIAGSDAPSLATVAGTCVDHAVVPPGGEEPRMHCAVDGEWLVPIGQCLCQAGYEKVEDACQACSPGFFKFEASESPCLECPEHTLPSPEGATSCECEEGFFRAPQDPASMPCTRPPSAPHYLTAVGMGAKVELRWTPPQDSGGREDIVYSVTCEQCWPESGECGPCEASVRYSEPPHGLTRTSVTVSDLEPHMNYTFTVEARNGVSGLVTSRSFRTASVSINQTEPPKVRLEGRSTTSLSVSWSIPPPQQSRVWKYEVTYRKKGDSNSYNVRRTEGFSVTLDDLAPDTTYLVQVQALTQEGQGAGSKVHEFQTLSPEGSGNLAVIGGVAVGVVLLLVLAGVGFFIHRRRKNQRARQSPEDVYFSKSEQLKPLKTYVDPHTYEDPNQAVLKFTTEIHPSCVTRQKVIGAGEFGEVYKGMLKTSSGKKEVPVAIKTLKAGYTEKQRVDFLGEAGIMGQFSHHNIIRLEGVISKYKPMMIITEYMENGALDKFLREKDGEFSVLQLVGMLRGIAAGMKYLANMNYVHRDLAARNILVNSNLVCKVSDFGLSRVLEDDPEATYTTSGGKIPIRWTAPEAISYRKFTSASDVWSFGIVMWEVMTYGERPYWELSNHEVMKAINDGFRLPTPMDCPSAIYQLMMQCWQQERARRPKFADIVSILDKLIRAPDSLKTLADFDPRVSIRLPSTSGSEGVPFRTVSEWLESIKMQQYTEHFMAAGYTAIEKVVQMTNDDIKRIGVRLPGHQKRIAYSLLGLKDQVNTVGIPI
JAK1: Tyrosine-protein kinase JAK1 (JAK1, Homo sapiens, UniProt P23458)
uncharacterized protein: uncharacterized protein (Spodoptera exigua, UniProt F1CEY0)
Sequence of UniProt Q16774 (whole entry, looked up): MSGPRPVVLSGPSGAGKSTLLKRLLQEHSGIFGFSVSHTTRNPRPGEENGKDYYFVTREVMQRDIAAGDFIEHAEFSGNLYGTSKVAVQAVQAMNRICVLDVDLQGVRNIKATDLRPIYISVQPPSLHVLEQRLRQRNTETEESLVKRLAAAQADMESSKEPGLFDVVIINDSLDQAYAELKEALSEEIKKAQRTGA
Sequence of UniProt Q64663 (whole entry, unmodified, looked up): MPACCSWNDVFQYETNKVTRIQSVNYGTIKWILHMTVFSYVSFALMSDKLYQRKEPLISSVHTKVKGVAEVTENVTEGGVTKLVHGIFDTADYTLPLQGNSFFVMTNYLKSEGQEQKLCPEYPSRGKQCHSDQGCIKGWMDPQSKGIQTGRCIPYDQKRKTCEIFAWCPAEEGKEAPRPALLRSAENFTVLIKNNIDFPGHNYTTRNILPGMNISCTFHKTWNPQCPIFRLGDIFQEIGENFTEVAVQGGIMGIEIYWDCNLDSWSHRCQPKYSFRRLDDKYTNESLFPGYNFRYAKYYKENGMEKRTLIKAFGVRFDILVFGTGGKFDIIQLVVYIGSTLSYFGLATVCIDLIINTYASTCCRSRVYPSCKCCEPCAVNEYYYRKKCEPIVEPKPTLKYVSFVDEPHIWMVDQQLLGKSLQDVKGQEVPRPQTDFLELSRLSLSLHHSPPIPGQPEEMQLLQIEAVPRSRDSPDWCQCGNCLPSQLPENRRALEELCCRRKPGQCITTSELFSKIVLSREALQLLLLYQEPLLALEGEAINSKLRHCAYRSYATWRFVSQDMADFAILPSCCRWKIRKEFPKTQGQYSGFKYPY
Sequence of UniProt P26368 (whole entry, looked up): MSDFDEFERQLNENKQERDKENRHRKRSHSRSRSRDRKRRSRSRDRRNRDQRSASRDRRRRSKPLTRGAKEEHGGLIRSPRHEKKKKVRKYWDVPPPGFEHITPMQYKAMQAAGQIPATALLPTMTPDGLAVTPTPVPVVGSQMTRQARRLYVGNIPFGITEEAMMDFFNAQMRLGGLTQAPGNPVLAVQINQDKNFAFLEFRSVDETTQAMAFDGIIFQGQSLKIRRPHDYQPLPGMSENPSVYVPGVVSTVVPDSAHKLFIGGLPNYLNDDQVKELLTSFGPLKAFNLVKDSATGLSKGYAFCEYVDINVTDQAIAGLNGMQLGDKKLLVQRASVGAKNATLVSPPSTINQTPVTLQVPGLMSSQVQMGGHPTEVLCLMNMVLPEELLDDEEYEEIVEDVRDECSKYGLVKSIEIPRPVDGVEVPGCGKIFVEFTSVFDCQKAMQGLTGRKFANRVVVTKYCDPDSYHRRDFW
Sequence of UniProt P51575 (whole entry, unmodified, looked up): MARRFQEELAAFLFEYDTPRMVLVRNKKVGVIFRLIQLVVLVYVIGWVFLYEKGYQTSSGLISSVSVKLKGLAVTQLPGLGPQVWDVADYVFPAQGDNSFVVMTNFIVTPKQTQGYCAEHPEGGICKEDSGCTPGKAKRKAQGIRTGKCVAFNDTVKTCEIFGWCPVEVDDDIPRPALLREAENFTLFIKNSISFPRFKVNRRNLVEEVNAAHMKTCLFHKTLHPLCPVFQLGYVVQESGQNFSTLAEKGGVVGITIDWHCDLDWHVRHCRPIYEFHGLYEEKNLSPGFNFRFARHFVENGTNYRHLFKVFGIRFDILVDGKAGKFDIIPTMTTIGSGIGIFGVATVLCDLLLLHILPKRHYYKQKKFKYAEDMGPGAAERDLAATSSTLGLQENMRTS
Sequence of UniProt Q62351 (whole entry, looked up): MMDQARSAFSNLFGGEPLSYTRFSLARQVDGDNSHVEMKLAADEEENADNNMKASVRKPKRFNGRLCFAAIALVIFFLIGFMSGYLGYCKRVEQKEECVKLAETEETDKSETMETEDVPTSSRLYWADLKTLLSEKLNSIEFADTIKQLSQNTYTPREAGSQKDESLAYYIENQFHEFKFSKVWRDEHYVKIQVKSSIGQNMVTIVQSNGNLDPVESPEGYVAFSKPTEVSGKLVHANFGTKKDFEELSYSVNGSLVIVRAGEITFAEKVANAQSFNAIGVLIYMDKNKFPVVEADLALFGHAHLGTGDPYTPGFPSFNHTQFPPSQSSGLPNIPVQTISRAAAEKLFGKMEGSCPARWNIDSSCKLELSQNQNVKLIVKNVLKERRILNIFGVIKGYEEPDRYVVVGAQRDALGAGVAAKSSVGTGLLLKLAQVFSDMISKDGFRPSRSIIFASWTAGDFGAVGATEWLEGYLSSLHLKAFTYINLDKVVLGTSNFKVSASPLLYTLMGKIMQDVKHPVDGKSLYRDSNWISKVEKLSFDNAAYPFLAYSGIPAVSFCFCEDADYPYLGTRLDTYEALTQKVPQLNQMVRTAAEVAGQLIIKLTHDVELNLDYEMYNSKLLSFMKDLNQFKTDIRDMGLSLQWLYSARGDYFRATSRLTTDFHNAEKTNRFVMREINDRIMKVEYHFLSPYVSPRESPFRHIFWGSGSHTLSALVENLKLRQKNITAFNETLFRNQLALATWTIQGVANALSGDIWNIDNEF
Sequence of UniProt P11388 (whole entry, looked up): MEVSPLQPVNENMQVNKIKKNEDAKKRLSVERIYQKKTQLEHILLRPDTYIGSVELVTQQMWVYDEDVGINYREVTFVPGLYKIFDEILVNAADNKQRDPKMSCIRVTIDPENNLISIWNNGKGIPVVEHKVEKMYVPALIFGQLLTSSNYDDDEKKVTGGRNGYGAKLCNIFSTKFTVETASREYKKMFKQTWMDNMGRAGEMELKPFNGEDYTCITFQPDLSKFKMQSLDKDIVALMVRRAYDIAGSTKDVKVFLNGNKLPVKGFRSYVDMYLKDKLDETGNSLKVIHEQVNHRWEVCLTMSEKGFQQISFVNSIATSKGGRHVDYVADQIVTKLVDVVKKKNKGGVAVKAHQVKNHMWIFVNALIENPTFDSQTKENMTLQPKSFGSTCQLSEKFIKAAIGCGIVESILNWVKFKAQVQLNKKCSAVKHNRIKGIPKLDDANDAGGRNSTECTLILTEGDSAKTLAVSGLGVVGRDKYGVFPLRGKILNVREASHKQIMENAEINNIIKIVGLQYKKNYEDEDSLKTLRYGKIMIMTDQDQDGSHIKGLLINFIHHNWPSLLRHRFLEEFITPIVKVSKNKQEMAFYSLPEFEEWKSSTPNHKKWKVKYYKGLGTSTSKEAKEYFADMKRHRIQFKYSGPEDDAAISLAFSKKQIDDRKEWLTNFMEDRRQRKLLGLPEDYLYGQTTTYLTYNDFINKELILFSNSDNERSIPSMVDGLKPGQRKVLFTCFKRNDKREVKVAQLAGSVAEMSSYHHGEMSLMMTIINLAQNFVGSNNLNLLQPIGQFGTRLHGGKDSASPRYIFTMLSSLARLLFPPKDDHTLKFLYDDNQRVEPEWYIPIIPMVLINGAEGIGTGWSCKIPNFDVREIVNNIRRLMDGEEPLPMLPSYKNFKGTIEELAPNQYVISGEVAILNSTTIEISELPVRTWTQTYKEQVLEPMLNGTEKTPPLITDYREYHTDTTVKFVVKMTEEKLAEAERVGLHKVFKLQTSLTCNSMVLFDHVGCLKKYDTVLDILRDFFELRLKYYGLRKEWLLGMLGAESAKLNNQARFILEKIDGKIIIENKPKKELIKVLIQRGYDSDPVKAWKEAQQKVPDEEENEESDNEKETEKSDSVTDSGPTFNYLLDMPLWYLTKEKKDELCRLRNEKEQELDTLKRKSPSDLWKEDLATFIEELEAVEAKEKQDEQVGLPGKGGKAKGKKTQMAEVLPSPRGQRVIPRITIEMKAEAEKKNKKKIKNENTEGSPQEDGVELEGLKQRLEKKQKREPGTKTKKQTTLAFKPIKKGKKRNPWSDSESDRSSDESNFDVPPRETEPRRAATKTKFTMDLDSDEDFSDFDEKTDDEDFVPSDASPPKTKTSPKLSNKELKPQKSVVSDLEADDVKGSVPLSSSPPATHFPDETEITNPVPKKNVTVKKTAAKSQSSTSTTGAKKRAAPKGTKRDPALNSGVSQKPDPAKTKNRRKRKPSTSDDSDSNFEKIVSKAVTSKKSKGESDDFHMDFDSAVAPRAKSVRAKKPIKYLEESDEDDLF

COc1cc(Nc2ncc3c(n2)-c2ccc(Cl)cc2C(c2c(F)cccc2OC)=NC3)ccc1C(=O)O  remaining activity (MATK; kinase activity; 1 µM): 106%
N[C@H](CNC(=O)c1ccc(-c2cccc(F)c2)s1)C(=O)O  Hill slope (Glutamate receptor ionotropic, NMDA 1, with GluN2C (Grin1, Rattus norvegicus, UniProt P35439); added: glutamate 300 µM): 1.46
CC(NC(=O)CCCc1ccc2ccc3cccc4ccc1c2c34)C(=O)NO (centres unmarked)  binding stoichiometry (HDAC8 (Homo sapiens, UniProt Q9BY41); ITC; phosphate buffer; concentration not given, pH 7.5): 0.89
CC[C@@H]1[C@H](F)C(=O)N[C@@H]1COc1nccc2cc(C(N)=O)c(OC)cc12  inhibition (EPHA2; ATP probe binding, KiNativ profiling, measured: activation loop probe site; THP-1 cell lysate; 0.2 mM): 2.2%
O=C(COP(=O)(O)O)[C@@H](O)[C@H](O)[C@H](O)COP(=O)(O)O  thermal stability ratio (Splicing factor U2AF 65 kDa subunit (Homo sapiens, UniProt P26368); thermal proteome profiling, measured: U2AF2; HepG2 cell lysate; concentration not given, 57 over 37 °C; baseline: compound over control): 0.571 and 0.588 and 0.409
Cc1n[nH]c2ccc(-c3cc(OC[C@@H](N)Cc4ccccc4)cnc3-c3ccoc3)cc12  log2 fold change (Carbon catabolite-derepressing protein kinase (SNF1, Candida albicans, UniProt P52497); kinase binding, competitor, MIB/MS competition, measured: SNF1; Candida albicans cell lysate; 1 µM; baseline: DMSO): -0.136
Cc1cc(-c2ccnc3[nH]cc(F)c23)cc(F)c1[C@@]1(O)[C@H](C)CN(C2CCS(=O)(=O)CC2)C[C@@H]1C  probe labelling inhibition (JAK1; ATP/ADP probe binding, KiNativ; HEK293T lysate; 1 µM, activation loop domain 1): 10.3%
CC(=O)OC/C=C(\C)CCC=C(C)C  relative fluorescence (uncharacterized protein; binding, competitor, fluorescence displacement; 20 µM, pH 7.4, added: 1-NPN 20 µM; baseline: 1-NPN alone): 62.6%
[O-][S+]1CCCCS1 (centres unmarked)  SOD1 dimer level (SOD1 (Homo sapiens, UniProt P00441, G94A); target engagement; SOD1 G93A transgenic mice, brain; intravenous, 10 mg/kg once daily): 65% and 63%
Nc1ncnc2c1ncn2[C@@H]1O[C@H](COP(=O)(O)OP(=O)(O)OP(=O)(O)O)[C@@H](O)[C@H]1O  normalized current (P2X purinoceptor 7 (P2rx7, Rattus norvegicus, UniProt Q64663, I214A/Q143A); ion current, agonist, two-electrode voltage clamp; Xenopus laevis oocytes; 300 µM; baseline: highest concentration response): 0.52 and 0.44 and 0.54
O=c1nc(SCc2cc(F)cc(C(F)(F)F)c2)nc(SCc2ccc3sccc3c2)[nH]1  ATP hydrolysis rate (TOP2A (Homo sapiens, UniProt P11388); ATPase activity; 7.8 µM, added: ATP 0.025 mM): 0.322 µM/min and 0.425 µM/min
CC12CCC(CC1)C(C)(C)O2  relative fluorescence (uncharacterized protein; binding, competitor, fluorescence displacement; 20 µM, pH 7.4, added: 1-NPN 20 µM; baseline: 1-NPN alone): 70%
CC[C@H](C)[C@@H]1NC(=O)[C@H](Cc2ccc(O)cc2)NC(=O)[C@H](CC(C)C)NC(=O)[C@@H]2CCCN2C(=O)[C@@H](NC(=O)[C@H](CCCNC(=N)N)NC(=O)[C@H](CCCNC(=N)N)NC(C)=O)CSSC[C@@H](C(=O)N[C@@H](CCCNC(=N)N)C(=O)N[C@@H](CCCNC(=N)N)C(N)=O)NC(=O)[C@H](C(C)C)NC(=O)[C@@H]2CCCN2C(=O)[C@H](CC(=O)O)NC(=O)[C@H](Cc2cc(F)c(F)c(F)c2)NC(=O)[C@H](CO)NC1=O  lowest bound protein concentration (GTPase KRas, GDP-bound (KRAS, Homo sapiens, UniProt P01116, G12D); affinity selection mass spectrometry; mixture library 2, added: protein titration up to 5 µM; lower is stronger binding): 0.08 µM
CC[C@@H](C)[C@@H](NC(=O)[C@@H](Cc1ccc(O)cc1)NC(=O)[C@H]1CCCN1C(=O)[C@@H](CCCNC(=N)N)NC(=O)[C@H](N)Cc1c[nH]cn1)C(=O)N[C@H](C)C(=O)N[C@H](Cc1c[nH]cn1)C(=O)N[C@H](CCCNC(=N)N)C(=O)N[C@@H](C(=O)N[C@H](Cc1ccc(O)cc1)C(=O)N[C@H](CO)C(=O)N[C@H](Cc1ccccc1)C(N)=O)C(C)C  surface expression (Transferrin receptor protein 1 (Tfrc, Mus musculus, UniProt Q62351); flow cytometry; MC-38; 48 h, unit not given; baseline: 0 h): 0.479 and 0.501
N[C@H](CNC(=O)c1cc(Br)c(-c2ccccc2F)s1)C(=O)O  Hill slope (Glutamate receptor ionotropic, NMDA 1, with GluN2C (Grin1, Rattus norvegicus, UniProt P35439, F754L); rat; added: glutamate 300 µM): 1.59
CCCCC[C@H](O)/C=C/[C@H]1[C@H](O)CC(=O)[C@@H]1C/C=C\CCCC(=O)O  Emax (PTGER1 (Homo sapiens, UniProt P34995, E294A); IP1 accumulation, agonist; AD293; 1 h, EP1 E294A mutant): 13.4 ± 6.94%
COc1cccc(CNC(=O)C#Cc2cn(Cc3ccc(C(=O)O)cc3)c(=O)[nH]c2=O)c1  log IC50 (Collagenase 3 (MMP13, Homo sapiens, UniProt P45452); protease activity, FRET): -7.963 ± 0.0471
O=S(=O)(O)O  reaction velocity (GUK1 (Homo sapiens, UniProt Q16774); enzyme activity, NADH-coupled; 1 mM, added: ATP 2000 µM): 0.133 µM/s and 0.134 µM/s and 0.131 µM/s
CCC(=O)NS(=O)(=O)c1ccc(-c2c(-c3ccccc3)noc2C)cc1  activation (RXRA (Homo sapiens, UniProt P19793); reporter gene, Gal4 hybrid reporter; 50 µM; baseline: vehicle): 1.02 fold
COc1cc(NC(=O)c2cnn(-c3ccc([N+](=O)[O-])cc3)c2C(F)(F)F)cc(OC)c1OC  selectivity ratio (PTGS2 (Homo sapiens, UniProt P35354); enzyme activity, inhibitor; baseline: COX-1 IC50 over COX-2 IC50): 0.93
C=CC(=O)N1CCC[C@@H](n2nc(-c3ccc(Oc4ccccc4)cc3)c3c(N)ncnc32)C1  remaining activity (EPHA2; 0.1 µM): 128%
Nc1ncnc2c1ncn2[C@@H]1O[C@H](COP(=O)(O)OP(=O)(O)OP(=O)(O)O)[C@@H](O)[C@H]1O  kcat (CKMT1A (Homo sapiens, UniProt P12532, D359N); substrate, ADP-Glo luminescence; pH 8.5, forward reaction, D321N mutant, added: second substrate in excess): 11 ± 5 s⁻¹
CC(=O)c1c(C)c2cnc(Nc3ccc(N4CCN(CCCOc5ccc(CN6CCC(c7ccc8c(c7)CN(C7CCC(=O)NC7=O)C8=O)CC6)cc5)CC4)cn3)nc2n(C2CCCC2)c1=O (centres unmarked)  Dmax (CDK6 (Homo sapiens, UniProt Q00534); protein degradation, degrader, immunoblot; Jurkat; 4 h): 78%
Cc1cc(-c2ccnc3[nH]cc(F)c23)cc(F)c1[C@@]1(O)[C@H](C)CN(C(=O)CN)C[C@@H]1C  probe labelling inhibition (JAK1; ATP/ADP probe binding, KiNativ; HEK293T lysate; 0.1 µM, Lys1 peptide domain 2): -0.1%
Nc1ncnc2c1ncn2[C@@H]1O[C@H](COP(=O)(O)CP(=O)(O)OP(=O)(O)O)[C@@H](O)[C@H]1O  calcium influx (P2X purinoceptor 1 (P2RX1, Homo sapiens, UniProt P51575, R139A); calcium influx; 31.6 nM; baseline: ionomycin response): 2.55% and 0% and 6.81%
O=C(COP(=O)(O)O)[C@@H](O)[C@H](O)[C@H](O)COP(=O)(O)O  melting temperature (Fructose-1,6-bisphosphatase 1 (Mus musculus, UniProt Q9QXD6, G27P); thermal shift; 0.1 mM, G27P mutant, added: AMP 0.2 mM): 69 ± 0.2 °C
CC(=O)N[C@H](C(=O)N1C[C@H](O)C[C@H]1C(=O)NCc1ccc(-c2scnc2C)cc1)C(C)(C)SCCCCCCNC(=O)C[C@@H]1N=C(c2ccc(Cl)cc2)c2c(sc(C)c2C)-n2c(C)nnc21  −TΔS (BRD2/VHL, BD1; with VCB (Homo sapiens, UniProt P25440+P40337, K107A/Q101K/V106E); ITC; 25 °C, BRD2 BD1 KEA mutant, ternary): -5 ± 1 kcal/mol
O=S(=O)(O)C1CCNCC1  normalised MST signal (SLC6A6 (Homo sapiens, UniProt P31641, Y138A); binding, microscale thermophoresis; 1 mM, room temperature, added: 50 nM labelled protein; higher = more binding): -0.0439
C=CC(=O)N1CCC(COCC(=O)N2CCN(c3nc(-c4cnc(N)nc4C(F)F)nc(N4CCOC[C@@H]4C)n3)CC2)CC1  remaining binding (CDK5 (Homo sapiens, UniProt Q00535); KINOMEscan; 1 µM): 100%
Cc1cn([C@H]2C[C@H](N=[N+]=[N-])[C@@H](CO)O2)c(=O)[nH]c1=O  Vmax (UGT2B7 (Homo sapiens, UniProt P16662); glucuronidation, substrate; washed microsomes; added: additional fatty acids): 17 ± 10 pmol/min/mg protein
CC1(C)[C@H]2CC=C(CO)[C@@H]1C2  relative fluorescence (uncharacterized protein; binding, 1-NPN competitive displacement; protein 2.0 µM, added: 1-NPN 20 µM; baseline: 1-NPN without compound, lower = stronger binding): 71.2%
CC1CC(c2ccccc2)n2nc(N3C(=O)C4CC=CCC4C3=O)nc2N1 (centres unmarked)  ligand efficiency (ADORA2A (Homo sapiens, UniProt P29274); radioligand displacement; added: [3H]ZM241385): 0.29

Repeated from above:
Nc1ncnc2c1ncn2[C@@H]1O[C@H](COP(=O)(O)CP(=O)(O)OP(=O)(O)O)[C@@H](O)[C@H]1O  calcium influx (P2X purinoceptor 1 (P2RX1, Homo sapiens, UniProt P51575, R139A); calcium influx; 31.6 nM; baseline: ionomycin response): 2.55% and 0% and 6.81%
O=C(COP(=O)(O)O)[C@@H](O)[C@H](O)[C@H](O)COP(=O)(O)O  melting temperature (Fructose-1,6-bisphosphatase 1 (Mus musculus, UniProt Q9QXD6, G27P); thermal shift; 0.1 mM, G27P mutant, added: AMP 0.2 mM): 69 ± 0.2 °C
CC(=O)N[C@H](C(=O)N1C[C@H](O)C[C@H]1C(=O)NCc1ccc(-c2scnc2C)cc1)C(C)(C)SCCCCCCNC(=O)C[C@@H]1N=C(c2ccc(Cl)cc2)c2c(sc(C)c2C)-n2c(C)nnc21  −TΔS (BRD2/VHL, BD1; with VCB (Homo sapiens, UniProt P25440+P40337, K107A/Q101K/V106E); ITC; 25 °C, BRD2 BD1 KEA mutant, ternary): -5 ± 1 kcal/mol
